Published values of several laboratories.
Numbered parts are unrelated; each lists some results of a single study. Several values in a cell are separate wells, animals, samples, runs or records.
Sequence of UniProt O14757 (whole entry, looked up): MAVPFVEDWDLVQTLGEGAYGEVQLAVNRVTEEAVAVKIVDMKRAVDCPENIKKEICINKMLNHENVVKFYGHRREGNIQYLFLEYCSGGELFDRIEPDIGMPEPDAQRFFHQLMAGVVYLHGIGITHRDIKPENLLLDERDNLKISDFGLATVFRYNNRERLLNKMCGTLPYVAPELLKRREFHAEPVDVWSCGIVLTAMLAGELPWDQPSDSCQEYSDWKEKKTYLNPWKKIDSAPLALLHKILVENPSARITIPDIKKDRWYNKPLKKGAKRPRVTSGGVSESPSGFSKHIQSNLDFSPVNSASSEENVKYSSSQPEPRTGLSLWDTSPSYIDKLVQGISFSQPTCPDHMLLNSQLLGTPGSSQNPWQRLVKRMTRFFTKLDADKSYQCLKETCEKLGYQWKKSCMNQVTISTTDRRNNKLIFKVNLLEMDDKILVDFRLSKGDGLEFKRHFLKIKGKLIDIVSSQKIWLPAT
Sequence of UniProt Q14289 (whole entry, looked up): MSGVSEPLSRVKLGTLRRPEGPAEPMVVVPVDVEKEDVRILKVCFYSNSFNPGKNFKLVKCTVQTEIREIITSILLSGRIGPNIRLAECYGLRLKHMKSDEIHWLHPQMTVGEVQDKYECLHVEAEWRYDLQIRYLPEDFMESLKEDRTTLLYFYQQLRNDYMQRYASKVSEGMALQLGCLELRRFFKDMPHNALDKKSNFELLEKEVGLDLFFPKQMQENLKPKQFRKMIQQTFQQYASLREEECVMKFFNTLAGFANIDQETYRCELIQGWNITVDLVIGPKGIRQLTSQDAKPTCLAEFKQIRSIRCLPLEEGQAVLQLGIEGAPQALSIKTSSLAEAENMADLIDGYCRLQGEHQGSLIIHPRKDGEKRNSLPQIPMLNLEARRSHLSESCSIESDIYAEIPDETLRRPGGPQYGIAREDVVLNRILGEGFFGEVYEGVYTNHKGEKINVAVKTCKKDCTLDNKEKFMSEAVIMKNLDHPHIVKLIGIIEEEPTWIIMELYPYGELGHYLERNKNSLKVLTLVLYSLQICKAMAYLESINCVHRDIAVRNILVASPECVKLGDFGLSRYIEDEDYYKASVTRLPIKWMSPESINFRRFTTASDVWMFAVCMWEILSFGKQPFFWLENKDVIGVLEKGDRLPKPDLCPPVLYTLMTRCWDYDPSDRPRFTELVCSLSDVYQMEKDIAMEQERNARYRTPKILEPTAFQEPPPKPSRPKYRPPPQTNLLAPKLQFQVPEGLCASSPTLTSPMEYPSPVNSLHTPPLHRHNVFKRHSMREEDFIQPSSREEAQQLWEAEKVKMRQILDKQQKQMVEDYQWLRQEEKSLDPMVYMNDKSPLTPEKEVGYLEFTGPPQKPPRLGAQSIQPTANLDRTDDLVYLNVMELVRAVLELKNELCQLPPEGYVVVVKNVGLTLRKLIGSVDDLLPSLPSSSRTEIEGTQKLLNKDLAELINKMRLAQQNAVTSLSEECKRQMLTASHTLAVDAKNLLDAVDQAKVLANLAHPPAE
Sequence of UniProt P07948 (whole entry, looked up): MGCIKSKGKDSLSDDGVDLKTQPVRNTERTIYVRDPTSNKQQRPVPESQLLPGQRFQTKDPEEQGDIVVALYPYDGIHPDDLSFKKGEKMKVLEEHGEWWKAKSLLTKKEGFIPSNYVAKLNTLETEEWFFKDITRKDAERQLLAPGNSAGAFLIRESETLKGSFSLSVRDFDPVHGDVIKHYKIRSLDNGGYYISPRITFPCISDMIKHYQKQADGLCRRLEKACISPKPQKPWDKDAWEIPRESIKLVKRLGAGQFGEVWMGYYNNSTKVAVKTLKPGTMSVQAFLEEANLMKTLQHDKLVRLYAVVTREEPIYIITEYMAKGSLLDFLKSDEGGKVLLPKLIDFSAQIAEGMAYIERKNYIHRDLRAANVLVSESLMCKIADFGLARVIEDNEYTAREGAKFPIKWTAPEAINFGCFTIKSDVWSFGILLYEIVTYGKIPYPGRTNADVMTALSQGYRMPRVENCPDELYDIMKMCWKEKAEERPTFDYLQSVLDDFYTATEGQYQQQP
Sequence of UniProt Q16659 (whole entry, looked up): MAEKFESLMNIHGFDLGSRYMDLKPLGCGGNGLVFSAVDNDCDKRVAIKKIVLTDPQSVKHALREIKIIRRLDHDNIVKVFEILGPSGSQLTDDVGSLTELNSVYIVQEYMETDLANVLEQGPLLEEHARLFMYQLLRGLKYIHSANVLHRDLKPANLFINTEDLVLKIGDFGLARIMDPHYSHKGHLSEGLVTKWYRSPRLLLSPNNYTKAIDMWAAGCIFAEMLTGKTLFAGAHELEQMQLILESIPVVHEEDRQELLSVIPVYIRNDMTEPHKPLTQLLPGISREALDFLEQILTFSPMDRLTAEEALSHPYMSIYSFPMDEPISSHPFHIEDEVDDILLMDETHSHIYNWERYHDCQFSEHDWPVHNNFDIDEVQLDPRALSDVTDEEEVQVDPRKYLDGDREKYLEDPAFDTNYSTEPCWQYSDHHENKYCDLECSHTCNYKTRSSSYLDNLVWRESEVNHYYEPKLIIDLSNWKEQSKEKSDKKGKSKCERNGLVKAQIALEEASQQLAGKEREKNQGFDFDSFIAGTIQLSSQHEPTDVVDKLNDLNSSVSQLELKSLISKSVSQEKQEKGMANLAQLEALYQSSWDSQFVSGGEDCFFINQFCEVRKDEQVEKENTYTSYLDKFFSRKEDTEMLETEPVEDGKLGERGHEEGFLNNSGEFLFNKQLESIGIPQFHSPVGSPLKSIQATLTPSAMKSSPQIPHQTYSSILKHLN
Sequence of UniProt Q15208 (whole entry, looked up): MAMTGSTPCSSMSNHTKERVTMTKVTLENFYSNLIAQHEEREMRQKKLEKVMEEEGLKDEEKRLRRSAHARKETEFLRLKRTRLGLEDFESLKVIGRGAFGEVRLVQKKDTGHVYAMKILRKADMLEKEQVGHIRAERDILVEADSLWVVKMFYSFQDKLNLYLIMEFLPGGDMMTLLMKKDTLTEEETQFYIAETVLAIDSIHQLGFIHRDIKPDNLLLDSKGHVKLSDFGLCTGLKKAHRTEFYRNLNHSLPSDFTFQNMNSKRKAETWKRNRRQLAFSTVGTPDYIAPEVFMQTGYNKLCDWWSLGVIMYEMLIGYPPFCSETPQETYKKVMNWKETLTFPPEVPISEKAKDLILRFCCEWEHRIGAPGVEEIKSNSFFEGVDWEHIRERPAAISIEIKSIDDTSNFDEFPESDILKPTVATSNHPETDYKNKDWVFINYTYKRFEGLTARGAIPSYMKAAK
Sequence of UniProt Q9NWZ3 (whole entry, looked up): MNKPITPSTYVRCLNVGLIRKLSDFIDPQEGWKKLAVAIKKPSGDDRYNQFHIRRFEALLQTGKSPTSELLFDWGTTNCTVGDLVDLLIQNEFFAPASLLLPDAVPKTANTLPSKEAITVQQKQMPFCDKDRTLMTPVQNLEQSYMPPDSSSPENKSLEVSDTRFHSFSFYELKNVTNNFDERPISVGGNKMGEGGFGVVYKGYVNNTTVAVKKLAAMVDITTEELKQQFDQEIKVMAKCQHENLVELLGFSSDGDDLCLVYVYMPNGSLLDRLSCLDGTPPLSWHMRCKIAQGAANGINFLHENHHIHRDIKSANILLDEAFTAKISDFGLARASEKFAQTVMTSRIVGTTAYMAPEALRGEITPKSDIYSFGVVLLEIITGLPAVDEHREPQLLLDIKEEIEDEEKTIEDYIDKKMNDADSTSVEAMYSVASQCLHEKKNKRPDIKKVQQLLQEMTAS
Sequence of UniProt P78368 (whole entry, looked up): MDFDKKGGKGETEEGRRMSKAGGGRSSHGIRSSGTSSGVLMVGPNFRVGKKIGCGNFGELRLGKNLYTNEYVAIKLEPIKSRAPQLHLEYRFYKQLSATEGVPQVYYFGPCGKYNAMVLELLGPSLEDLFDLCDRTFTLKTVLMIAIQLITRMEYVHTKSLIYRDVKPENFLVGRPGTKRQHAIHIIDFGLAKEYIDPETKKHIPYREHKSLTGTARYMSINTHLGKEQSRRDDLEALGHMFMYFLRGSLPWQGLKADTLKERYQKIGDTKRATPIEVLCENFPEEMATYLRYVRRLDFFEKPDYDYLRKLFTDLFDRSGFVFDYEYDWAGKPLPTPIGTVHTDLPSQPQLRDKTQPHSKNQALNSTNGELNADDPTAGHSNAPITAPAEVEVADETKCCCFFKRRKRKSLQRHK
Sequence of UniProt Q99640 (whole entry, looked up): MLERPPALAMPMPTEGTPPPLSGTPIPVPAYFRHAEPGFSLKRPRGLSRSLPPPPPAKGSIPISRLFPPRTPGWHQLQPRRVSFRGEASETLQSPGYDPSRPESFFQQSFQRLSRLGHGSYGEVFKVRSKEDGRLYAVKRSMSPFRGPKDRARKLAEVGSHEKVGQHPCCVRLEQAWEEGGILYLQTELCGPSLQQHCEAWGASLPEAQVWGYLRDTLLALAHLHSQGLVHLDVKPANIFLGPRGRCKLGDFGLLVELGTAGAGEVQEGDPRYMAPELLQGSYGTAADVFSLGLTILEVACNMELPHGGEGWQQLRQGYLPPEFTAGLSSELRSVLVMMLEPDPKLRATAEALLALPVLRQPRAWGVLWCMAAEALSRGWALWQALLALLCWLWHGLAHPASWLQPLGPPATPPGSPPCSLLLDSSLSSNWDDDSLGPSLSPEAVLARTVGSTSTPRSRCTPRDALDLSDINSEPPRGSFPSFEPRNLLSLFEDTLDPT
Sequence of UniProt Q9HBH9 (whole entry, looked up): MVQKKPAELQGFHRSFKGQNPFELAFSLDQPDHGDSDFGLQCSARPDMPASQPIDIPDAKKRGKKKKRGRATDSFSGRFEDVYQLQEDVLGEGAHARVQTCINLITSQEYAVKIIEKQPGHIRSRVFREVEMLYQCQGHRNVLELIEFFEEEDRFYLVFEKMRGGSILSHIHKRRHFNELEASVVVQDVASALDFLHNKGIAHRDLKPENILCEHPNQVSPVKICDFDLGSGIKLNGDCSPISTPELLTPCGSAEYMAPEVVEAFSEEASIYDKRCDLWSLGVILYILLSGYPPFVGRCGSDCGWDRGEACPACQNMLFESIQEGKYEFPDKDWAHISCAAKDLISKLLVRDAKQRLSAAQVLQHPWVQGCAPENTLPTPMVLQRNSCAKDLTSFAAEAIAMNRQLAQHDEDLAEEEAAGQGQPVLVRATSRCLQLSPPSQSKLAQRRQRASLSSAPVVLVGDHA

Series 1
Compound: N#CC(=C(N)Sc1ccc(N)cc1)c1ccccc1C(F)(F)F
Effect on: enzyme activity
Mode: inhibitor
Tested at: 0.5 µM
Relative to: control
| target | remaining activity [%] |
| --- | --- |
| LRRK2 (Homo sapiens, UniProt Q5S007) | 100 |
| CSNK2A1 (Homo sapiens, UniProt P68400) | 97.9 |
| MKNK2 (Homo sapiens, UniProt Q9HBH9) | 109 |
| BTK (Homo sapiens, UniProt Q06187) | 93.5 |
| NEK4 (Homo sapiens, UniProt P51957) | 95.9 |
| MAP2K6 (Homo sapiens, UniProt P52564) | 97.5 |
| MAP4K2 (Homo sapiens, UniProt Q12851) | 85.7 |
| PLK2 (Homo sapiens, UniProt Q9NYY3) | 98.1 |
| LYN (Homo sapiens, UniProt P07948) | 107 |
| EPHA5 (Homo sapiens, UniProt P54756) | 116 |
| PRKG1 (Homo sapiens, UniProt Q13976) | 98.8 |
| CSNK1A1 (Homo sapiens, UniProt P48729) | 82.9 |
| CHEK1 (Homo sapiens, UniProt O14757) | 97.5 |
| KIT (Homo sapiens, UniProt P10721) | 91.8 |
| MAP3K10 (Homo sapiens, UniProt Q02779) | 88.1 |
| MAPK13 (Homo sapiens, UniProt O15264) | 104 |
| STK38 (Homo sapiens, UniProt Q15208) | 93.1 |
| IRAK4 (Homo sapiens, UniProt Q9NWZ3) | 89.8 |
| MAPK12 (Homo sapiens, UniProt P53778) | 97.4 |
| PRKCD (Homo sapiens, UniProt Q05655) | 97.5 |
| PRKCI (Homo sapiens, UniProt P41743) | 102 |
| Cyclin-dependent kinase 9, with cyclin T1 (CDK9, Homo sapiens, UniProt P50750) | 97.7 |
| AKT3 (Homo sapiens, UniProt Q9Y243) | 96.2 |

Series 2
SMILES: COc1cc(C(=O)N2CCC(N3CCN(C)CC3)CC2)ccc1Nc1ncc2c(n1)N(C)c1ccccc1C(=O)N2C
| target or system | test | system | conditions | inhibition |
| --- | --- | --- | --- | --- |
| BTK (human) | probe labelling, KiNativ ATP probe | human PBMC lysate | concentration not given, LYS1 labelled site | 3.4% |
| BRAF (mouse) | probe labelling, KiNativ ADP probe | mouse brain lysate | 0.1 µM, LYS2 labelled site | 16.3% |
| MYLK | KiNativ ADP probe | human PBMC lysate | 1 µM, LYS1 site | 10.1% |
| ZAP70 (human) | probe labelling, KiNativ, measured: DFG motif peptide | PBMC lysate (human) | 0.1 µM, together with: ADP acyl-phosphate probe | 10.3% |
| SYK mouse | KiNativ profiling | mouse brain lysate | 1 µM, LYS1 site, together with: ADP acyl phosphate probe | 15.1% |
| TNIK (human) | probe labelling, KiNativ, measured: Lys1 site peptide | PBMC lysate (human) | 1 µM, together with: ADP acyl-phosphate probe | 5.9% and -3% |
| CaMKK2 (mouse) | probe labelling, KiNativ, measured: Lys1 site peptide | brain tissue lysate (mouse) | 1 µM, together with: ATP acyl-phosphate probe | 29.8% |
| CDK5 (mouse) | probe labelling, KiNativ, measured: DLkPQNLLINR peptide, LYS2 site | brain tissue lysate (mouse) | 1 µM, together with: ATP acyl-phosphate probe | -6.7% |
| human PBMC | probe labeling, inhibitor, KiNativ profiling | cell lysate | concentration not given, domain 1, DFG motif site, together with: ADP acyl-phosphate probe 0.1 µM | -10.2% |
| PAN3 human | KiNativ profiling | human PBMC lysate | concentration not given, ADP probe, other site | -7.4% |
| FYN (mouse) | probe labelling, KiNativ ADP probe | mouse brain lysate | 1 µM, LYS1 labelled site | 10.1% |
| human PBMC | probe labeling, inhibitor, KiNativ profiling | cell lysate | concentration not given, domain 1, DFG motif site, together with: ADP acyl-phosphate probe 1 µM | -8.7% |
| MAP2K6 (mouse) | probe labelling, KiNativ ADP probe | mouse brain lysate | 1 µM, LYS2 labelled site | 8.7% |
| TBK1 mouse | KiNativ profiling | mouse brain lysate | 1 µM, LYS1 site, together with: ATP acyl phosphate probe | -8.8% |
| CaMKK2 (mouse) | probe labelling, KiNativ, measured: Lys1 site peptide | brain tissue lysate (mouse) | 0.1 µM, together with: ATP acyl-phosphate probe | -0.9% |

Series 3
SMILES: CC[C@@H](C)c1nc2cc(Nc3ccnc4ccc(S(=O)(=O)C(C)C)cc34)ccc2s1
| target or system | test | system | conditions | CC50 |
| --- | --- | --- | --- | --- |
|  | CCK-8 | L929 RIPK3 knockout, mouse | MEM with 10% FBS | 75.7 µM and 56 µM |
| L929 RIPK3 knockout | cell viability |  | 10% FBS, mean of 3, together with: zVAD | 65 µM |
| L929 | cell viability, CCK-8 |  | without zVAD, 10% FBS, mean of 3 | 57.7 µM |
| L929 | cell viability, CCK-8 |  | 10% FBS, mean of 3, together with: zVAD | 55.5 µM |
| L929 RIPK3 knockout | cell viability |  | without zVAD, 10% FBS, mean of 3 | 61.4 µM |
|  | CCK-8 | L929 RIPK3 knockout, mouse | MEM with 10% FBS, together with: zVAD | 85.4 µM and 54.8 µM |

Series 4
Structure (SMILES): Cc1cc(NC(=O)c2cccc(S(F)(F)(F)(F)F)c2)cc(-n2ccn3nc(-c4cccnc4)cc23)c1
Effect on: cell-free assay
Method: competition with immobilised ligand
Tested at: 1 µM
| target | remaining binding |
| --- | --- |
| CSNK1G1 (Homo sapiens, UniProt Q9HCP0) | 100% |
| CHEK1 (Homo sapiens, UniProt O14757) | 72% |
| PIK3CA (Homo sapiens, UniProt P42336, E545K) | 72.5% |
| Tyrosine-protein kinase ABL1, non-phosphorylated (ABL1, Homo sapiens, UniProt P00519, T315I) | 88.9% |
| PAK5 (Homo sapiens, UniProt Q9P286) | 100% |
| MAPK6 (Homo sapiens, UniProt Q16659) | 100% |
| DAPK1 (Homo sapiens, UniProt P53355) | 100% |
| STK17B (Homo sapiens, UniProt O94768) | 100% |
| PTK6 (Homo sapiens, UniProt Q13882) | 100% |
| PKMYT1 (Homo sapiens, UniProt Q99640) | 100% |
| PTK2B (Homo sapiens, UniProt Q14289) | 100% |
| PRKACB (Homo sapiens, UniProt P22694) | 100% |
| GRK2 (Homo sapiens, UniProt P25098) | 74.5% |
| CSF1R (Homo sapiens, UniProt P07333) | 100% |
| CSNK1G2 (Homo sapiens, UniProt P78368) | 95.4% |
| MAP3K5 (Homo sapiens, UniProt Q99683) | 100% |

Some of these lines once more (series 4):
| target | remaining binding |
| --- | --- |
| PKMYT1 (Homo sapiens, UniProt Q99640) | 100% |
| PTK2B (Homo sapiens, UniProt Q14289) | 100% |
| PRKACB (Homo sapiens, UniProt P22694) | 100% |
| GRK2 (Homo sapiens, UniProt P25098) | 74.5% |
| CSF1R (Homo sapiens, UniProt P07333) | 100% |
| CSNK1G2 (Homo sapiens, UniProt P78368) | 95.4% |
| MAP3K5 (Homo sapiens, UniProt Q99683) | 100% |
